Assay results pooled from the literature.
Each line is one published result; not all experiments were run side by side. Several values in a cell are separate wells, animals, samples, runs or records. Numbers after ± are the reported error.

Compound	test	test system	setting	how to read	measurement	result
Cc1ccc2c(c1)C(=O)[C@]1(O)CCN(c3ccc4nc(C)ccc4c3)C1=N2.Cl	–	mouse, orthotopic sample A PDX	dose not given, 168 h, treatment from day 7	baseline: vehicle	survival prolongation	25%
NCC(=O)Nc1cncc(-c2nn3c(=O)cc(N4CCNCC4)nc3s2)c1	ADP-induced platelet aggregation, light transmission aggregometry	human, stable CAD on aspirin, ex vivo platelets	subcutaneous, 0.04 mg/kg, 360 min post-dose, median value, added: ADP 20 µM	–	inhibition	0%
O=C(O)CNC(=O)Cc1ccccc1	–	ventricular cardiomyocytes, C57BL/6 mouse	dose not given, 0.004 s	–	sarcomere length	1.72 µm
CN(C)C(=O)c1cc2cnc(Nc3ccc(N4CCNCC4)cn3)nc2n1C1CCCC1	RNA-seq GSEA, measured: HALLMARK_HEDGEHOG_SIGNALING	MB002 tumour	concentration not given, in vivo	baseline: vehicle, direction not given	GSEA enrichment score	-0.498
O=C1Nc2cc3[nH]nc(-c4ccncc4)c3cc2CN1Cc1ccccc1	RECIST v1.1	human, relapsed or refractory advanced solid tumours	intravenous, 0.9 mg/kg, pooled schedules	–	progressive disease, best response	100%
COc1ncc(-c2nc3c(n2C(C)C)[C@H](c2ccc(Cl)cc2)N(c2cc(Cl)cn(C)c2=O)C3=O)c(OC)n1	antileukemic activity, measured: treatment failure, indeterminate cause	human, acute myeloid leukaemia	45 mg, low-dose, RDE	–	best overall response	0%
C[C@H](Oc1ccc(Br)cc1-c1ccon1)C(=O)O	muscle velocity recovery cycle	human, tibialis anterior muscle	600 mg once daily, first response latency at 30 Hz, multiple ascending dose	–	difference from placebo	-0.545%
NC(=O)c1cnc2[nH]ccc2c1N[C@@H]1[C@@H]2CC3C[C@H]1C[C@@](O)(C3)C2	flow cytometry, measured: CD4+ memory T cells	Japanese healthy subjects, peripheral blood	oral, 30 mg twice daily, day 7	–	change from baseline	0.38%
N=C(N)NCCC[C@H](NC(=O)[C@H](CCCNC(=N)N)NC(=O)[C@H](CCCCN)NC(=O)[C@H](CCC(N)=O)NC(=O)[C@H](CCCCN)NC(=O)[C@H](Cc1ccc(O)cc1)NC(=O)[C@@H](N)CCCCN)C(=O)N[C@@H](CO)C(=O)N[C@@H](Cc1ccc(O)cc1)C(=O)N[C@@H](CCCCN)C(=O)O	–	dentin hypersensitivity patients	2.5 µg/tooth single, day 22, unit not given	baseline: baseline	median tactile threshold change	-0.5
C=CCn1c(=O)c2cnc(Nc3ccc(N4CCN(C)CC4)cc3)nc2n1-c1ccc2c(n1)[C@@](O)(CC)CC2	–	TOV21G xenograft, BALB/c nude mice	oral, 80 mg/kg once daily x 19, day 20	–	tumour volume difference	-19.3 ± 6.4 mm3
C[C@H]1C[C@H]2CSC(N)=N[C@@]2(c2nc(NC(=O)c3ccc(OC(F)F)cn3)cs2)CO1	measured: Aβ1-40	healthy adults, plasma	540 mg single dose, 24 h post-dose	baseline: placebo	percent change from baseline	-89.4%
CCOc1c([C@H](C)n2nc(C)c3c(N)ncnc32)cc(Cl)c(F)c1[C@@H]1CNC(=O)C1	Olink proximity extension proteomics, measured: TNF	human FL or MZL patients, plasma	dose not given, week 8	baseline: baseline	plasma protein level change	-46%
c1ccc(-c2n[nH]cc2-c2ccnc3ccccc23)nc1	kinase binding, competitor, MIB/MS competition, measured: FPK1	Candida albicans cell lysate	1 µM	baseline: DMSO	log2 fold change	1.5
OC[C@H]1O[C@@H](c2ccc(Cl)c(Cc3ccc(O[C@H]4CCOC4)cc3)c2)[C@H](O)[C@@H](O)[C@@H]1O	–	Japanese type 1 diabetes patients	10 mg, day 7, 168 h	baseline: baseline	diastolic blood pressure change	-0.5 mmHg
COc1cc(O)c(CC=C(C)C)c(O)c1C(=O)/C=C/c1ccc(O)cc1	glucose tolerance test	Tac:SW mice (male, conventional, high-fat diet)	in diet, 60 mg/kg per day, 15 min after glucose, after 10 weeks	–	blood glucose	201 mg/dL
COc1ncnn2ccc(-c3cnc4nc(C)n(Cc5nnc([C@@H](C)F)o5)c4c3)c12	–	relapsed or refractory AML or MDS patients	dose not given	–	CR plus CRi rate	35.7%
Cc1n[nH]c2ccc(-c3cc(OC[C@@H](N)Cc4ccccc4)cnc3-c3ccoc3)cc12	kinase binding, competitor, MIB/MS competition, measured: SAK1	Candida albicans cell lysate	10 µM	baseline: DMSO	log2 fold change	-0.482
C[C@H]1O[C@@H](O[C@H]2CC[C@@]3(C)[C@@H](CC[C@]4(C)[C@@H]3C=C[C@]35OC[C@@]6(CCC(C)(C)C[C@H]63)[C@@H](O)C[C@]54C)[C@]2(C)CO)[C@H](O)[C@@H](O[C@@H]2O[C@H](CO)[C@@H](O)[C@H](O)[C@H]2O)[C@H]1O	Western blot, measured: PGC-1α	chronic-plus-binge ethanol-fed mice, liver	dose not given, dose level -L, unit not given	baseline: β-actin	protein level	1.17 and 0.445 and 1.12

For quick reference, copied from above:
Compound	test	test system	setting	how to read	measurement	result
C[C@H]1C[C@H]2CSC(N)=N[C@@]2(c2nc(NC(=O)c3ccc(OC(F)F)cn3)cs2)CO1	measured: Aβ1-40	healthy adults, plasma	540 mg single dose, 24 h post-dose	baseline: placebo	percent change from baseline	-89.4%
COc1cc(O)c(CC=C(C)C)c(O)c1C(=O)/C=C/c1ccc(O)cc1	glucose tolerance test	Tac:SW mice (male, conventional, high-fat diet)	in diet, 60 mg/kg per day, 15 min after glucose, after 10 weeks	–	blood glucose	201 mg/dL
c1ccc(-c2n[nH]cc2-c2ccnc3ccccc23)nc1	kinase binding, competitor, MIB/MS competition, measured: FPK1	Candida albicans cell lysate	1 µM	baseline: DMSO	log2 fold change	1.5
